Results of several laboratories.
Protocols differ between the studies behind these lines. ± marks the error that the study gave.
SLC10A2: Ileal sodium/bile acid cotransporter (SLC10A2, Homo sapiens, UniProt Q12908)
T1: DNA aptamer; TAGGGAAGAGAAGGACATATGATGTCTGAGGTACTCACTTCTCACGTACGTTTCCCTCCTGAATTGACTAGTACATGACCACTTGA

SMILES = Cc1cc(C#CC2(O)CCCCC2)cc2c1cc(C(=O)O)n2-c1cccc(Cl)c1; target = Microphthalmia-associated transcription factor, residues 1-296 (Homo sapiens, UniProt O75030); test = binding, isothermal titration calorimetry; conditions = 25 °C; measurement = ΔG; result = -8.8 ± 0.335 kcal/mol
SMILES = CCCCCCOc1ccc(C(=O)OCCN2CC=CCC2)cc1; target = CHRM1 (Homo sapiens, UniProt P11229); test = antagonist, measured: inositol phosphates; system = CHO; conditions = M1, together with: carbachol; measurement = cooperativity factor; result = 0.001 ± 0.0003
SMILES = CCCCCCCCO[C@@H]1O[C@H](CO)[C@H](O)C[C@H]1O[C@@H]1O[C@@H](C)[C@@H](O)[C@@H](O)[C@@H]1O; target = ABO (Homo sapiens, UniProt P16442, G235S/G268A/L266M/R176G); test = methyl-TROSY NMR titration lineshape analysis; conditions = apo enzyme; measurement = koff; result = 3300 ± 200 s⁻¹
SMILES = CC(C)C[C@H](NC(=O)[C@H](CC(=O)O)NC(=O)CNC(=O)[C@@H](N)CCCNC(=N)N)C(=O)N[C@@H](C)C(=O)N[C@H](C(=O)N[C@@H](CC(C)C)C(=O)NCCOCCOCCOCCOCCOCCOCCOCCOCCOCCOCCOCCOCCC(=O)N[C@@H](CSC1CC(=O)N(CCC(=O)NCCCC[C@H](NC(=O)CCN2C(=O)CC(SC[C@H](NC(=O)CCOCCOCCOCCOCCOCCOCCOCCOCCOCCOCCOCCOCCNC(=O)[C@H](CC(C)C)NC(=O)[C@@H](NC(=O)[C@H](C)NC(=O)[C@H](CC(C)C)NC(=O)[C@H](CC(=O)O)NC(=O)CNC(=O)[C@@H](N)CCCNC(=N)N)[C@@H](C)O)C(N)=O)C2=O)C(=O)NCCCC[C@H](NC(=O)[C@H](CCCCNC(=O)CCN2C(=O)CC(SC[C@H](NC(=O)CCOCCOCCOCCOCCOCCOCCOCCOCCOCCOCCOCCOCCNC(=O)[C@H](CC(C)C)NC(=O)[C@@H](NC(=O)[C@H](C)NC(=O)[C@H](CC(C)C)NC(=O)[C@H](CC(=O)O)NC(=O)CNC(=O)[C@@H](N)CCCNC(=N)N)[C@@H](C)O)C(N)=O)C2=O)NC(=O)CCN2C(=O)CC(SC[C@H](NC(=O)CCOCCOCCOCCOCCOCCOCCOCCOCCOCCOCCOCCOCCNC(=O)[C@H](CC(C)C)NC(=O)[C@@H](NC(=O)[C@H](C)NC(=O)[C@H](CC(C)C)NC(=O)[C@H](CC(=O)O)NC(=O)CNC(=O)[C@@H](N)CCCNC(=N)N)[C@@H](C)O)C(N)=O)C2=O)C(=O)NCCC(=O)O)C1=O)C(N)=O)[C@@H](C)O (stereo partly shown); target = Integrin alpha-V/beta-6 (Homo sapiens, UniProt P06756+P18564); test = H2009.1 phage uptake; conditions = 1 nM; scale = relative to: compound over H2009.1 tetrameric 20-mer peptide; measurement = inhibition ratio; result = 1.4 fold
SMILES = O=C1C=CC2(c3coc4cc(O)ccc4c3=O)c3cc(-c4coc5cc(O)ccc5c4=O)ccc3OC2C1 (stereo not shown); target = PRXC1A (Armoracia rusticana, UniProt P00433); test = substrate, Hill kinetic model; conditions = product formation, together with: hydrogen peroxide NG; measurement = Hill coefficient; result = 0.946
SMILES = O=c1[nH]cnc2c(CN3C[C@@H](O)[C@H](O)C3)c[nH]c12; target = PNP (Homo sapiens, UniProt P00491); test = isothermal titration calorimetry; conditions = concentration not given, pH 7.4, 27 °C, first subunit, together with: 50 mM phosphate; measurement = binding enthalpy; result = -12.3 ± 0.3 kcal/mol
SMILES = O=Cc1ccc(-c2cn([C@@H]3O[C@H](COP(=O)(O)OP(=O)(O)O[C@H]4O[C@H](CO)[C@H](O)[C@H](O)[C@H]4O)[C@@H](O)[C@H]3O)c(=O)[nH]c2=O)s1; target = ABO (Homo sapiens, UniProt P16442, G268A/L266G); test = galactosyltransferase activity, substrate, HPLC; conditions = acceptor; scale = relative to: natural donor; measurement = Km; result = ~10 fold
SMILES = [11CH3]Nc1ccc(-c2nc3ccc(O)cc3o2)cn1; target = APP (Homo sapiens, UniProt P05067); test = binding, PET, reference Logan; system = Alzheimer's disease patients, posterior cingulate cortex; scale = relative to: cerebellum; measurement = distribution volume ratio; result = 1.8 ± 0.18
SMILES = CCNC(=O)[C@H]1O[C@@H](n2cnc3c(Nc4ccc(I)cc4)ncnc32)[C@H](O)[C@@H]1O; target = ADORA3 (Homo sapiens, UniProt P0DMS8); test = kinetic radioligand binding; conditions = 10 °C, no GTP, together with: [3H]PSB-11; measurement = kon; result = 190000 ± 30000 M⁻¹ s⁻¹
SMILES = CC(CCC(=O)NC(CCC(=O)Nc1ccccc1O)C(=O)O)C1CCC2C3C(O)CC4CC(O)CCC4(C)C3CCC12C (stereo not shown); target = SLC10A2; test = transport efficiency, substrate, LC-MS/MS; system = ASBT-MDCK; measurement = normalized Jmax/Kt; result = 0.262 µM⁻¹
SMILES = C[C@@H]1O[C@@H](O[C@H]2C(=O)c3c(O)cc(O)cc3O[C@@H]2c2ccc(O)cc2)[C@H](O)[C@H](O)[C@H]1O; target = PTPN1 (Homo sapiens, UniProt P18031); test = fluorescence quenching; conditions = concentration not given; measurement = binding site number; result = 1.02
SMILES = COc1ccc(-c2nc(CSc3nc(N)c(C#N)c(-c4ccccc4)c3C#N)cs2)cc1; target = ADORA1 (Homo sapiens, UniProt P30542); test = cAMP, agonist; measurement = Emax; result = 97%
SMILES = O=C(Nc1ccc(I)cc1)N1CCC(n2c(=O)[nH]c3c(Br)cccc32)CC1; target = OGG1 (Homo sapiens, UniProt O15527); test = differential scanning fluorimetry; scale = higher = stabilisation; measurement = thermal shift; result = 4.1 K
SMILES = CCC(=C(c1ccc(O)cc1)c1ccc(OCCN(C)CCOCCOCCOCCOCCOCCOCCOCCOCCOCCN(C)CCOc2ccc(C(=C(CC)c3ccccc3)c3ccc(O)cc3)cc2)cc1)c1ccccc1 (mixture of isomers); target = ESR2 (Homo sapiens, UniProt Q92731); test = radioligand competition binding; conditions = concentration not given, Z-E/E isomer form, together with: [3H]estradiol tracer; scale = relative to: estradiol; measurement = relative binding affinity; result = 7.85 ± 2%
SMILES = O=C([O-])CN1CCN(CC(=O)[O-])CCN(C(CCC(=O)NCCCCCN(CCCC[C@H](NC(=O)N[C@@H](CCC(=O)O)C(=O)O)C(=O)O)C(=O)c2ccc(I)cc2)C(=O)O)CCN(CC(=O)[O-])CC1.[68Ga+3] (stereo partly shown); target = FOLH1 (Homo sapiens, UniProt Q04609); test = PET/CT; system = prostate cancer patients, all lesion types; conditions = mean; measurement = SUVmax; result = > 10
SMILES = C[N+](C)(C)CCCOc1ccc2cc(CN)ccc2c1; target = Primary amine oxidase, liver isozyme (Bos taurus, UniProt Q29437); test = substrate, fluorescence; scale = relative to: benzylamine; measurement = relative kcat/Km; result = 1800
SMILES = Cn1c(-n2nccn2)nc2c(N)nc(CCC3CCCCC3)nc21; target = ADORA2A (Homo sapiens, UniProt P29274); test = radioligand displacement; system = HEK293 cell membranes; conditions = 25 °C, together with: [3H]ZM241385; measurement = binding free energy; result = -12.16 ± 0.02 kcal/mol
SMILES = CC(=O)[C@H]1CC[C@H]2[C@@H]3CCC4=CC(=NOCC(=O)O)CC[C@]4(C)[C@H]3CC[C@]12C; target = T1, DNA aptamer; test = plate-ELAA; conditions = NaCl 100 mM; measurement = Kd; result = 0.57 nM
SMILES = Cc1ccc2ccc3ccc(C)nc3c2n1.Cc1ccc2ccc3ccc(C)nc3c2n1.O.[Cl-].[Cl-].[Cl-].[Yb+3]; target = Albumin (ALB, Bos taurus, UniProt P02769); test = fluorescence quenching titration; conditions = concentration not given, 290 K; measurement = number of binding sites; result = 1.17
SMILES = N=C(N)NCCC[C@H](NC(=O)[C@H](CC(=O)O)NC(=O)[C@@H]1CSCCCC(=O)NCC(=O)N[C@@H](Cc2c[nH]cn2)C(=O)N[C@H](Cc2ccccc2)C(=O)N[C@@H](CCCNC(=N)N)C(=O)N[C@H](Cc2c[nH]c3ccccc23)C(=O)N1)C(=O)N[C@@H](Cc1ccccc1)C(=O)NCC(N)=O; target = MC3R (Homo sapiens, UniProt P41968); test = cAMP accumulation, agonist; system = HEK293 expressing MC3R; conditions = 10 µM; scale = relative to: MT-II; measurement = activation; result = 75%
SMILES = CCC(=C(c1ccc(Cl)cc1)c1ccc(OCCN(CC)CC)cc1)c1ccc(Cl)cc1; target = Estrogen receptor (ESR1, Homo sapiens, UniProt P03372); test = reporter gene, agonist, yeast estrogen screen; conditions = 1 µM; scale = relative to: DMSO; measurement = fold activation; result = 1.17 ± 0.02 fold
SMILES = [123I]c1ccc2nc(-c3ccc(-n4ccnn4)nc3)cn2c1; target = Amyloid-beta precursor protein, amyloid-beta (APP, Homo sapiens, UniProt P05067); test = SPECT; system = healthy controls, anterior cingulate; conditions = 120 to 210 min; scale = relative to: cerebellum; measurement = SUVR; result = 0.78 ± 0.05
SMILES = CC(=O)N1Cc2c(-c3ccc(C(=O)N4CCCc5ccccc54)cc3)cnn2C[C@H]1Cc1ccccc1; target = PRKN/UBB (Homo sapiens, UniProt O60260+P0CG47); test = not specified; conditions = concentration not given; measurement = activity; result = inactive
SMILES = C[C@H](CCC(=O)N[C@@H](CCC(=O)Nc1cncc(Br)c1)C(=O)O)[C@H]1CC[C@H]2[C@@H]3[C@H](O)C[C@@H]4C[C@H](O)CC[C@]4(C)[C@H]3CC[C@]12C; target = SLC10A2; test = transport, substrate; system = ASBT-MDCK cells; conditions = unit not given; scale = relative to: taurocholate Jmax; measurement = Jmax; result = 0.67
SMILES = Nc1nc2ccccc2n1Cc1ccccc1; target = Beta-secretase 1 (BACE1, Homo sapiens, UniProt P56817, D93N); test = binder, surface plasmon resonance; conditions = concentration not given, D32N catalytic-site mutant; measurement = binding; result = binds
SMILES = CCc1nc2cc3ccccc3cc2cc1C(=O)N[C@@H](CCCCN)C(=O)N[C@@H](C/C=C\C[C@H](NC(=O)[C@H](CCCCN)NC(=O)c1cc2cc3ccccc3cc2nc1CC)C(=O)N1CCC[C@H]1C(=O)NCCCN)C(=O)N1CCC[C@H]1C(=O)NCCCN; target = (CCUG)10 RNA; test = SPR; measurement = residence time; result = 253 s
SMILES = [C-]#[O+].[C-]#[O+].[C-]#[O+].[C-]#[O+].[C-]#[O+].[C-]#[O+].[Cl-].[Cl-].[Re+].[Re+].c1cnc(-c2ncccn2)nc1; target = Albumin (ALB, Homo sapiens, UniProt P02768); test = tryptophan fluorescence quenching; measurement = quenching rate constant; result = 4.49e+13 M⁻¹ s⁻¹
SMILES = Cc1cc(C)c2sc(NC(=O)C3CCN(S(=O)(=O)c4ccc(F)cc4)CC3)nc2c1; target = N-acyl-phosphatidylethanolamine-hydrolyzing phospholipase D (Homo sapiens, UniProt Q6IQ20); test = activator; system = HepG2; conditions = together with: flame-NAPE substrate; scale = relative to: vehicle; measurement = Emax; result = 1.6 fold

For quick reference, copied from above:
SMILES = CC(=O)N1Cc2c(-c3ccc(C(=O)N4CCCc5ccccc54)cc3)cnn2C[C@H]1Cc1ccccc1; target = PRKN/UBB (Homo sapiens, UniProt O60260+P0CG47); test = not specified; conditions = concentration not given; measurement = activity; result = inactive
SMILES = COc1ccc(-c2nc(CSc3nc(N)c(C#N)c(-c4ccccc4)c3C#N)cs2)cc1; target = ADORA1 (Homo sapiens, UniProt P30542); test = cAMP, agonist; measurement = Emax; result = 97%
